Published values gathered from unrelated publications.
Numbered parts are unrelated; each lists some results of a single study.

Sample 1
Target: Centromere-binding protein 1, full length, His-tagged (CBF1, Saccharomyces cerevisiae, UniProt P17106, residues 1-351)
Chain of UniProt P17106 (whole entry, looked up): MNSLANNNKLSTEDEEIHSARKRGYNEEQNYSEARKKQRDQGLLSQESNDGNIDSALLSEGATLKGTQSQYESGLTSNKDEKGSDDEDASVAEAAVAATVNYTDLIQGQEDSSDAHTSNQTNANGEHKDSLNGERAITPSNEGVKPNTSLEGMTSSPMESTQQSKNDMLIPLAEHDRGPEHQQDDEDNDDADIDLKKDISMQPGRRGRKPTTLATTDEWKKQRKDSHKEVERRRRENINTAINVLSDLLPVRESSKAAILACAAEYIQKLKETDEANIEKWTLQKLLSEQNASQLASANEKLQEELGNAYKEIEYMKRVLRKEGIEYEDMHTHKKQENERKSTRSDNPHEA
Technique: competition protein-binding microarray
Form: double-stranded DNA, one strand shown
Medium: in vitro
Concentration: 2 µM
Setting: whole 60-bp probe, lowest competitor level
With: Pho4 competitor, 0.05 µM
Direction: higher = stronger binding
The fluorescence intensity of `GCGGAGGGGGCAGCCCATGTGCTGCGATTCGCTCCCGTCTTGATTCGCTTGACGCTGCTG` is reported as 134 a.u.
`CTAACGAAGGTTTGTCGCGTGGGTGACAAGCCAAGTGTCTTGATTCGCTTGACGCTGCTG` has a fluorescence intensity of 80.4 a.u.
`AGAGTTTGCAGAGTCCATGTGTCAAGAATTAGAACTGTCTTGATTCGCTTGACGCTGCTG` gave a fluorescence intensity of 105 a.u.
`GATCAAAAAAATACTCACGTGTCCTGGAGTCATAAAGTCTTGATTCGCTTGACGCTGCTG` gave a fluorescence intensity of 2350 a.u.
`ATTTTTCAATATTTTCACATGTGTGTCAATTTCTGCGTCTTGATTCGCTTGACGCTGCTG` has a fluorescence intensity of 238 a.u.
For `AGTAACTACGTAAATCACCTGCTACCTCTCTGTTCTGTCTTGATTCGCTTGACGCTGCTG`, the fluorescence intensity was 169 a.u.
`TAAGTTCCAGCTCTTCACGTGCTTTTGCTTCTCTCAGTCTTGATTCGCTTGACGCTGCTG` has a fluorescence intensity of 978 a.u.
For `GAAGTCGCCAGGGTGCGCGGGCACTCAGGGTAAGAGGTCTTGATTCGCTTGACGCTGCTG`, the fluorescence intensity was 51.1 a.u.
`AATTGGGTATTTTACCTCGTGATGGCCTCACAAAAGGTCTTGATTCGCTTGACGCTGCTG` gave a fluorescence intensity of 481 a.u.
The fluorescence intensity of `TTAGAGCTAAGAAAGCACGTGGTTACGATAATGAGGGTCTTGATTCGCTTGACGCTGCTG` is reported as 3610 a.u.
For `CTACGCCATCGTTAGCACGCAGAATATTACTTTTTCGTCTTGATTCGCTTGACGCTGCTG`, the fluorescence intensity was 80.9 a.u.
The fluorescence intensity of `GTCTTGTCTCATTTTCACGTGCCGTTCCCCACTTCAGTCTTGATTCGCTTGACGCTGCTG` is reported as 914 a.u.
The fluorescence intensity of `CATACCCAACCTTGTCACTGCACTTAAGATATTTGTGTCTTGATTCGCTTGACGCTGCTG` is reported as 94.5 a.u.
For `TAATTTGCTGTCCATCACGTGATGGATAATTTTTTTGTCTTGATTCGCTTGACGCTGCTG`, the fluorescence intensity was 13900 a.u.
The fluorescence intensity of `AAAGCGGTAATTTGGCGAGTGGGTGCAGATATCTATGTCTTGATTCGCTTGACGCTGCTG` is reported as 74.9 a.u.
For `GTCTTGTCTCATTGTCACGTAACTTTCCCCACTTCAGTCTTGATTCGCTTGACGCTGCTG`, the fluorescence intensity was 189 a.u.
With `ATGGTTTATCCCGGCCACGTGTGTTACCTCCGGTGAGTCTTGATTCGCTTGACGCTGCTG` the fluorescence intensity was 923 a.u.
For `AAAGCGGTAATTTGTTTGGTGGGTGCAGATATCTATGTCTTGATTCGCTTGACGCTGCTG`, the fluorescence intensity was 84 a.u.
`CCAACAAACGGAACACACGTGCGGAAGTTTCAAAGGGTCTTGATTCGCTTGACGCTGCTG` gave a fluorescence intensity of 1150 a.u.

Sample 2
Target: RNA binding protein fox-1 homolog 2, RRM domain, GST-SBP tag (RBFOX2, Homo sapiens, UniProt O43251-10, residues 100-194)
Technique: RNA Bind-n-Seq
Form: RNA
Medium: in vitro
Concentration: 365 nM
Setting: natural RNA segment, single round, ends assumed
Relative to: no-protein control
Direction: higher = stronger binding
Target sequence (chain): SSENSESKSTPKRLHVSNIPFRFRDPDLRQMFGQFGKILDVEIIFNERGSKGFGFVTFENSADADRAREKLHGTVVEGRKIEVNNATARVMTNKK
`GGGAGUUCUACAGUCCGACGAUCAAAGCCUGCACUGCACCAAAGCUACGGGUCCCUGUGUUUCCUCUAUUCAGUGAUGUCAUCAACCUCACUGUCCCAGCCCAUGUGUGACUAAAGUGCCCGGUUUUAGCCACUGGAAUUCUCGGGUGCCAA`: “RBNS enrichment (R)” 1.57.
For `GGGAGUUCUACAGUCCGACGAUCACACAUACAUGUCACAUUUAGCUGUGCUCAGAAGGGCUAUCAUCAUCCUACAACUCACAUUAGAGAACAUCCUGGCUUUUGAGCACUUUUCAAACAAUCAAGUUGACUCAUGGAAUUCUCGGGUGCCAA`, “RBNS enrichment (R)” read 0.323.
`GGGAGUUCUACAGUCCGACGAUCUUGUCACGUUAGCAACCAGUUUCUACUAUUCUGUGCCCAUCCAGUGUCAAUAUCAUUGAUUUCUUUUUCAUAUGAAGAUCCACAUGCAUUGUAAGAUUGUGAAGAUAUAUUGGAAUUCUCGGGUGCCAA`: “RBNS enrichment (R)” 0.352.
For `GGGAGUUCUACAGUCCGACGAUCCAGAUCCCUGCCCAUGCUGUUCCCCUUAGCAGCCUGCCUGUUCAUAGAGCGUUUCCCCUCUUGCUAACUCCCCAUUUUCUCCGUGAGCUCUGACUCCUAUUUAUCAUAUAUGGAAUUCUCGGGUGCCAA`, “RBNS enrichment (R)” read 0.837.
For `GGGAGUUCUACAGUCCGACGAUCCCCCAAACCCCUGGGCAUUGUUGUCUGCUCAAGAGAUUCUACUGGAAGCAUGAUGACCCACCUGUCUGGGAAGAGAAAACCUCAAGAAGGCAAAGUGCAGUGCGUGUUUGUGGAAUUCUCGGGUGCCAA`, “RBNS enrichment (R)” read 4.08.
`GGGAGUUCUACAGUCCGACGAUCGUUCACUGACUAGGAAAAGCACUACAUUUUAAAUUCAGCAUUAGUGCAUUGGGAAGGAUCUUUACUGCUUUGUGCUUGGCAUGUCAUUAUUUUCCAUUUGACAUUAGGGCUGGAAUUCUCGGGUGCCAA`: “RBNS enrichment (R)” 1.4.
For `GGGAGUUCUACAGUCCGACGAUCUGUUCUCAGAAUUAGACCCCACCUGUACUGUGUUCUAACACUGAGGGUGGUGGCACCUGAUUCAGAGCAGUGUGUGUGUGUGUGAAAAUACUGUAUAUUAAUGAUUAUUGUGGAAUUCUCGGGUGCCAA`, “RBNS enrichment (R)” read 0.415.
Under “RBNS enrichment (R)”, `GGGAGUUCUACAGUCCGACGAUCGUUGGGGGGCAGUUGGUUUGGUCUUCCUUCUAGGAGUAUGAGGGCAGCCUGUCUAGUUUGUAGAUCCCCUUGGUUGCUGGAUAAAGGAUGAUAAUAAAGUGUCUUUCUCUUGGAAUUCUCGGGUGCCAA` is recorded as 0.641.

Sample 3
Target: RING finger protein unkempt homolog, zinc fingers 1-6, GST-SBP tag (UNK, Homo sapiens, UniProt Q9C0B0, residues 30-357)
Chain of UniProt Q9C0B0 (30-357, looked up): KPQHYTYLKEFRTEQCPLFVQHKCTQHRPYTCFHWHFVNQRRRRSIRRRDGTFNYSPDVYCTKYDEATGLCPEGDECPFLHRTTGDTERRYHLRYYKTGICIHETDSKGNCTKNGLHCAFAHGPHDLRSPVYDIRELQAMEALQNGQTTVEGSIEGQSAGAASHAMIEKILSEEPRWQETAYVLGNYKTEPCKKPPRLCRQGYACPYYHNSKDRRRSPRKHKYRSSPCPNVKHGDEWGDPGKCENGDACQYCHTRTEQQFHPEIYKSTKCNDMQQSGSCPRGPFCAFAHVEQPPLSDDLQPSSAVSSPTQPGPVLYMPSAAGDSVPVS
Technique: RNA Bind-n-Seq
Form: RNA
Medium: in vitro
Concentration: not given
Setting: RNA with constant flanks, ends assumed
Relative to: input RNA pool
Direction: higher = stronger binding
The bound/input enrichment of `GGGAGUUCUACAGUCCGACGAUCGAAAAUGGAAGGUGUGUUACUAAGCUGGAGAGCAUGGGGUUCCGAGUGGGGCAAGGACUGACCGAAAGGUUUACGAAAGAUACUGCAAGGUUCAAGGAUGAAUUAGACAUCAUGAAGUUCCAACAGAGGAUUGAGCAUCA` is reported as 0.34 ratio.
The bound/input enrichment of `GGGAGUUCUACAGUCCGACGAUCAAUUUCCUGUCAUACUUUUUAGACAUUCACAUCAGACUUACAGAGCACCUGGCCACAUUCCCGGUUUGUGUUAUUUCUCAGCUAUGGAUAUGAUCAAAUGAGAACACUGCUUAACUAAUGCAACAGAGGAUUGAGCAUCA` is reported as 0.284 ratio.
`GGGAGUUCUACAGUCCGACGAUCACAAGUGAAGAGGGAUCUGGAGACUUGGAUAAUCUAGAUGCUAUUCUUGGUGAUCUGACCCGUUCUGACUUUUACAAUAAUUCCAUAUCCUCAAAUGGUAGUCAUCUGGGGACUAAGCAACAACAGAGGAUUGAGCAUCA` has a bound/input enrichment of 0.117 ratio.
`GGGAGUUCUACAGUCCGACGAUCUGUGGGAUAUCACAUCAGUGGUUCCAAGAUUUCAAAGUGGUGAAAUGAAAAUGGAGCAGCCCGUAUGUUUUAUUAUUUUAUGGGUCUUGAGUGCAUUUGAAGGUGUCCUUCAGUUCCCACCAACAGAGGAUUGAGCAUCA` gave a bound/input enrichment of 0.159 ratio.
`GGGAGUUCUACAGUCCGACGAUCCAAGGAAAGCCUAAUUUUGAAGAAUACUUUGAAAUUCUGACUCCAAAAAUCAACCAGACGUUCCGCGGGAUCAUGACUAUGUUGAAUAUGCAGUUUGUUGUACGAGUGAGGAGAUGGGACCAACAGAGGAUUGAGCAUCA` has a bound/input enrichment of 0.213 ratio.
`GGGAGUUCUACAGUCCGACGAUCUGUUUUCAUGCCCGGCCUUUGUUCCUCCAUAAAUGUGUCCUUUAGUUUCAAACAGAUCUUUACCGUUCGUGCUUCAUAAGCCAAUUCUUAUUAUUAUUUUUGGGGGACUCUUCUUCAAAGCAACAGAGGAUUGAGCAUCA` gave a bound/input enrichment of 2.51 ratio.
For `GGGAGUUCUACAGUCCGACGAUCGUCAGGACCUGGGUGGGUGGUCCUGAAUGCUUGGCUGGUGGGUUUGGGAGGAUGUGGAGCUACCGAGGCCUACUCUGCUUCCUAGGUCUCGAAGUCCUCGGAAGCCAAUAGACUCCCUUCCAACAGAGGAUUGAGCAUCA`, the bound/input enrichment was 0.309 ratio.
`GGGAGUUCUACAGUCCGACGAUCGGCAUGGUGUCAGAGCCCCUGGAGGACUUGGACCCCUACUAUGCAGACAAAAAGACUUUCACCGUAUUGAACAAAGGGAAAACAAUCUUCCGUUUCAAUGCCACACCUGCUUUAUAUAUGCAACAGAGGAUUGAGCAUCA` gave a bound/input enrichment of 0.0645 ratio.

Sample 4
Target: Sal-like protein 4, full length isoform B (SALL4, Homo sapiens, UniProt Q9UJQ4-2, residues 1-616)
Technique: universal PBM
Form: double-stranded DNA, one strand shown
Medium: in vitro
Concentration: not given
Setting: 8-mer, flanks averaged, mean of replicates
Direction: higher = stronger binding
Target sequence (chain): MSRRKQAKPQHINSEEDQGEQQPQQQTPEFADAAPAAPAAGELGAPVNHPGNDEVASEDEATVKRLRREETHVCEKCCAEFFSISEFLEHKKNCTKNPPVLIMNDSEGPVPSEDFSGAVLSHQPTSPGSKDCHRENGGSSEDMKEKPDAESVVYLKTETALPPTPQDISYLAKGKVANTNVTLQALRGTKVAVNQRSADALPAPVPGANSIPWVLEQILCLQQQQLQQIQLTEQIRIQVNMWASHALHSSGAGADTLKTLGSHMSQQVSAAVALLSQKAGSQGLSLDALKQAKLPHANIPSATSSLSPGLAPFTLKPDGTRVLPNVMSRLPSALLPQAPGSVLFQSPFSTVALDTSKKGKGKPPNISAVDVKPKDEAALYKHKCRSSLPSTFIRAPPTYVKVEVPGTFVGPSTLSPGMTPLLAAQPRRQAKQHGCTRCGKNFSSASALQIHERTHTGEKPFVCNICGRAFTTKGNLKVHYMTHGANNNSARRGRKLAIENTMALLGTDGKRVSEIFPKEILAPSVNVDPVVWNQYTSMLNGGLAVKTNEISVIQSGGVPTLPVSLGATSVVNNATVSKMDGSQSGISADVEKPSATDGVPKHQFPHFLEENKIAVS
For `CCCTTAGG`, the E-score was -0.158.
For `CGTATTCA`, the E-score was 0.255.
`ACCACGGT` gave an E-score of -0.212.
`CCTCAGGC` gave an E-score of -0.314.
With `AAAATGAC` the E-score was 0.228.
`CTGTTGAA` has an E-score of 0.118.
For `AGAAACCA`, the E-score was -0.0697.
With `GAAGAAGC` the E-score was -0.14.
For `AGTCCTCC`, the E-score was -0.0644.
`TATTGCCA` gave an E-score of 0.202.
For `GATGCGCC`, the E-score was -0.0919.
`CATCCTGA` gave an E-score of -0.019.
For `GCCCTTTA`, the E-score was -0.0693.
For `CAAGAAGA`, the E-score was 0.0191.
With `CTCGAGGA` the E-score was -0.194.
`CGTCAGCC` gave an E-score of -0.269.
For `CGCATCAC`, the E-score was -0.0309.
`CGGTGAGC` gave an E-score of -0.28.
`CTTCTCTA` gave an E-score of -0.0133.
The E-score of `ACCCCAGG` is reported as -0.393.
`GGTACGAC` gave an E-score of -0.253.

For quick reference, copied from above (sample 4):
For `CCCTTAGG`, the E-score was -0.158.
`CCTCAGGC` gave an E-score of -0.314.
`CGGTGAGC` gave an E-score of -0.28.
`CATCCTGA` gave an E-score of -0.019.
`CGTCAGCC` gave an E-score of -0.269.
`GGTACGAC` gave an E-score of -0.253.
`TATTGCCA` gave an E-score of 0.202.
For `GATGCGCC`, the E-score was -0.0919.
